Published values collected from several papers.
Compare with care: the assays were run in different laboratories. ± gives the spread as reported.

SMILES = O=C(O)CCCOc1ccc(F)cc1-c1cc(-c2ccccc2C(F)(F)F)n(-c2ccccc2)n1; organism = Escherichia coli; test = Ames reverse mutation test; test system = WP2 uvrA; setting = concentration not given, without S9; measurement = mutagenicity; result = negative
SMILES = N[C@@H](CCC(=O)O)C(=O)O; organism = Escherichia coli; test = amino acid uptake; test system = MG1655; setting = together with: equimolar amino acid mixture 1 mM; measurement = half-time of uptake; result = 19.9 h
SMILES = CN(Cc1cnc2nc(N)nc(N)c2n1)c1ccc(C(=O)N[C@@H](CCC(=O)O)C(=O)O)cc1; organism = Escherichia coli; test = LC-MS/MS; test system = BW25113; setting = 100 µM, 10 min, 37 °C; measurement = intracellular accumulation; result = 6.68 µM
SMILES = C[C@@H](O)[C@H](N)C(=O)O; organism = Escherichia coli; test system = MG1655, M9 medium; setting = 1 mM, 1 mM equimolar amino acid mixture; measurement = uptake half-time; result = > 28 h
SMILES = Cc1cc(N)c2c(OCC(C)(C)C(=O)NC(C)C)cccc2n1; organism = Salmonella typhimurium; test = reverse mutation, plate incorporation; test system = TA100; setting = 100 µg/plate, without S9; measurement = mean revertant colonies; result = 70 colonies/plate
SMILES = N[C@@H](CO)C(=O)O; organism = Escherichia coli; test system = MG1655, M9 medium; setting = 1 mM, 1 mM equimolar amino acid mixture; measurement = uptake half-time; result = 2.7 h
SMILES = Cc1cc(Nc2ccc(S(F)(F)(F)(F)F)cc2)n2nc(C(C)(F)F)nc2n1; organism = Plasmodium vivax; test = 12-lead Holter ECG; test system = human malaria patients; setting = oral, 800 mg, QTc above 500 ms; measurement = patients with QTcB above threshold; result = 0%
SMILES = CCOC(=O)C(C)c1n[nH]c2nc(N)[nH]c(=O)c2c1=O (stereo not drawn); organism = Escherichia coli; test = LC-MS/MS; test system = BW25113; setting = 100 µM, 10 min, 37 °C; measurement = intracellular accumulation; result = 9.64 ± 1.4 µM
SMILES = CC[C@H](CO)N(CCN(N=O)[C@H](CC)CO)N=O; organism = Escherichia coli; test = mutagenicity, Ames plate incorporation; test system = WP2 uvrA pKM101; setting = 500 µg/plate, without S9, methanol; measurement = revertant colonies per plate; result = 133 ± 20
